{"data": "Measurements pooled from the literature", "note": "Each line is one published result; not all experiments were run side by side. Numbers after ± are the reported error.", "UniProt P08684, sequence (whole entry, looked up)": "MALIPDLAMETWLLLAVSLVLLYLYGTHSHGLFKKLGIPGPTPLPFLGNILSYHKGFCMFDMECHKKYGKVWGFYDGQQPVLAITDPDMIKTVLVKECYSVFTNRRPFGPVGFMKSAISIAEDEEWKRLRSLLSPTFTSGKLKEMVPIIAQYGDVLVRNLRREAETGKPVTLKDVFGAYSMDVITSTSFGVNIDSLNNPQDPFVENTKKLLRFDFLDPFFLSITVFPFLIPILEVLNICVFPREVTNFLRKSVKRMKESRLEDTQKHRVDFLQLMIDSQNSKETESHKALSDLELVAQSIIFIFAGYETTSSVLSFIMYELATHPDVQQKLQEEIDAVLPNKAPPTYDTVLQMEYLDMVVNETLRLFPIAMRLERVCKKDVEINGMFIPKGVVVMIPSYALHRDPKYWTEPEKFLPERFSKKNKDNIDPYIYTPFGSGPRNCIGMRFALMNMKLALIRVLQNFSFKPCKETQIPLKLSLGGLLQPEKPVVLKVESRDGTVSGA"}
{"Compound": "COc1ccc2cc(NC(=O)c3cc(-c4cccnc4)nc4ccccc34)ccc2c1", "target or system": "Cytochrome P450 3A4 (CYP3A4, Homo sapiens, UniProt P08684)", "test": "substrate, LC-MS, item: hydroxylated metabolite M1", "test system": "baculosomes", "quantity": "Km", "result": "8.7 µM"}
{"Compound": "O=C([O-])c1cccc(CN(CCN(Cc2cn(Cc3ccccc3)nn2)Cc2cccc(C(=O)[O-])n2)Cc2cn(Cc3ccccc3)nn2)n1.[64Cu+2]", "test system": "healthy athymic nude mice, liver", "conditions": "intravenous, 24 h", "quantity": "tissue uptake", "result": "8.14 %ID/g"}
{"Compound": "CCCC[C@@H]1NC(=O)[C@@H](NC(=O)[C@H](CCC(=O)O)NC(=O)CNC(=O)CN2CCN(CC(=O)O)CCN(CC(=O)O)CCN(CC(=O)O)CC2)CCCCNC(=O)C[C@@H](C(N)=O)NC(=O)[C@H](C(C)C)NC(=O)[C@@H]2CCCN2C(=O)[C@H](CCCNC(=N)N)NC(=O)CNC(=O)[C@H](Cc2c[nH]c3ccccc23)NC(=O)[C@H](CCCNC(=N)N)NC(=O)[C@@H](Cc2ccccc2)NC(=O)[C@H](Cc2c[nH]cn2)NC(=O)[C@H](CCC(=O)O)NC1=O [gallium-67 labelled]", "test system": "normal C57 mice, skin", "conditions": "intravenous, 0.037 MBq/mouse, 2 h", "quantity": "tissue uptake", "result": "0.5 ± 0.09 %ID/g"}
{"Compound": "[64Cu+2].c1cnc(CNCc2ccc(CN3CCCN4CCNCCCN(CC4)CC3)cc2)nc1", "target or system": "CXCR4", "test system": "NOD/SCID mouse, U87 and U87-stb-CXCR4 xenografts, bladder", "conditions": "iv, 240 min, ex vivo", "quantity": "tissue uptake", "result": "2 ± 0.35 %ID/g"}
{"Compound": "CCCC[C@H](NC(=O)CNC(=O)CNC(=O)CN1CCN(CC(=O)O)CCN(CC(=O)O)CC1)C(=O)N[C@H]1CC(=O)NCCCC[C@@H](C(N)=O)NC(=O)[C@H](Cc2c[nH]c3ccccc23)NC(=O)[C@H](CCCNC(=N)N)NC(=O)[C@@H](Cc2ccccc2)NC(=O)[C@H](Cc2c[nH]cn2)NC1=O [gallium-67 labelled]", "test system": "female C57 mice, B16/F1 melanoma, heart", "conditions": "intravenous, 0.037 MBq, 0.5 h", "quantity": "tissue uptake", "result": "1.52 ± 0.28 %ID/g"}
{"Compound": "Cn1c(=O)oc2ccc(-c3ccc(CC(C#N)NC(=O)C4CNCCCO4)c(F)c3)cc21 (stereo not drawn)", "test system": "human volunteers, plasma", "conditions": "80 mg single dose, fasted, geometric mean", "quantity": "AUC(0-t)", "result": "8.27 µg·h/mL"}
{"Compound": "CCCC[C@H](NC(=O)CNC(=O)CNC(=O)CN1CCN(CC(=O)O)CCN(CC(=O)O)CCN(CC(=O)O)CC1)C(=O)N[C@H]1CC(=O)NCCCC[C@@H](C(N)=O)NC(=O)[C@H](Cc2c[nH]c3ccccc23)NC(=O)[C@H](CCCNC(=N)N)NC(=O)[C@@H](Cc2ccccc2)NC(=O)[C@H](Cc2c[nH]cn2)NC1=O [gallium-67 labelled]", "test system": "female C57 mice, B16/F1 melanoma, lung", "conditions": "intravenous, 0.037 MBq, 2 h", "quantity": "tissue uptake", "result": "0.4 ± 0.15 %ID/g"}
{"Compound": "O=C(O)C1CN(Cc2ccc(-c3noc(-c4ccc(OCC[18F])c(C(F)(F)F)c4)n3)cc2)C1", "test system": "Sprague-Dawley rat, male, normal, fat", "conditions": "iv, 60 min", "quantity": "tissue uptake", "result": "0.051 ± 0.003 %ID/g"}
{"Compound": "OCc1cn(Cc2ccc(-c3noc(-c4ccc(OCC[18F])c(C(F)(F)F)c4)n3)cc2)nn1", "test system": "Lewis rat, female, bone", "conditions": "intravenous, 0.5 h", "quantity": "tissue uptake", "result": "0.45 ± 0.03 %ID/g"}
{"Compound": "O=C(O)CCC(NP(=O)(O)OCCC[C@@H](NC(=O)CC[C@H](NC(=O)CCCCCNC(=O)c1ccc([18F])cc1)C(=O)O)C(=O)O)C(=O)O (stereo partly drawn)", "test system": "mouse, CWR22Rv1 xenograft, liver", "conditions": "dose not given, 4 h, blocking agent pre-dosed", "quantity": "tissue uptake", "result": "0.129 ± 0.008 %ID/g"}
{"Compound": "C[C@H](CN(C)Cc1ccccc1)NC(=O)c1ccc(-c2noc(C(F)(F)[18F])n2)cc1", "test": "PET imaging", "test system": "female Sprague-Dawley rats, cerebellum", "conditions": "intravenous, 1 min", "quantity": "tissue uptake", "result": "3.01 ± 1.08 SUV"}
{"Compound": "CC(C)[C@H](NC(=O)[C@@H]1CCCN1C(=O)[C@H](CCCNC(=N)N)NC(=O)[C@H](CS)NC(=O)[C@H](Cc1c[nH]c2ccccc12)NC(=O)[C@H](CCCNC(=N)N)NC(=O)[C@@H](Cc1ccccc1)NC(=O)[C@H](Cc1c[nH]cn1)NC(=O)[C@H](CCC(=O)O)NC(=O)[C@H](CS)NC(=O)[C@H](CS)NC(=O)COCCOCCNC(=O)[C@@H]1CC(=O)N[C@@H](CCCNC(=N)N)C(=O)NCC(=O)N[C@@H](CC(=O)O)C(=O)N[C@H](Cc2ccc(O)cc2)C(=O)N1)C(N)=O [technetium-99m labelled]", "test system": "nude mouse, M21 melanoma xenograft, muscle", "conditions": "intravenous, 2 h", "quantity": "tissue uptake", "result": "0.14 ± 0.16 %ID/g"}
{"Compound": "[64Cu+2].c1ccc(CNCc2ccc(CN3CCCN4CCNCCCN(CC4)CC3)cc2)nc1", "target or system": "CXCR4", "test system": "NOD/SCID mouse, U87 and U87-stb-CXCR4 xenografts, muscle", "conditions": "iv, 60 min, ex vivo", "quantity": "tissue uptake", "result": "0.36 ± 0.05 %ID/g"}
{"Compound": "COc1cc(CNC(=O)C[C@H](C)CCC=C(C)C)ccc1O", "target or system": "OVCAR-3 ovarian cancer cells", "test": "SRB", "conditions": "10 µM, 48 h", "quantity": "growth percent", "result": "94.8%"}
{"Compound": "CCCC[C@H](NC(=O)CN1CCC(NC(=O)CN2CCN(CC(=O)O)CCN(CC(=O)O)CCN(CC(=O)O)CC2)CC1)C(=O)N[C@H]1CC(=O)NCCCC[C@@H](C(N)=O)NC(=O)[C@H](Cc2c[nH]c3ccccc23)NC(=O)[C@H](CCCNC(=N)N)NC(=O)[C@@H](Cc2ccccc2)NC(=O)[C@H](Cc2c[nH]cn2)NC1=O [gallium-68 labelled]", "test system": "C57BL/6J mice male B16-F10 tumour, fat", "conditions": "1 h post injection, unblocked", "quantity": "tissue uptake", "result": "0.2 ± 0.1 %ID/g"}
{"note": "Repeated from above:"}
{"Compound": "CCCC[C@H](NC(=O)CNC(=O)CNC(=O)CN1CCN(CC(=O)O)CCN(CC(=O)O)CCN(CC(=O)O)CC1)C(=O)N[C@H]1CC(=O)NCCCC[C@@H](C(N)=O)NC(=O)[C@H](Cc2c[nH]c3ccccc23)NC(=O)[C@H](CCCNC(=N)N)NC(=O)[C@@H](Cc2ccccc2)NC(=O)[C@H](Cc2c[nH]cn2)NC1=O [gallium-67 labelled]", "test system": "female C57 mice, B16/F1 melanoma, lung", "conditions": "intravenous, 0.037 MBq, 2 h", "quantity": "tissue uptake", "result": "0.4 ± 0.15 %ID/g"}
{"Compound": "O=C(O)C1CN(Cc2ccc(-c3noc(-c4ccc(OCC[18F])c(C(F)(F)F)c4)n3)cc2)C1", "test system": "Sprague-Dawley rat, male, normal, fat", "conditions": "iv, 60 min", "quantity": "tissue uptake", "result": "0.051 ± 0.003 %ID/g"}
